Assay results pooled from the literature.
Protocols differ between the studies behind these lines.

Structure (SMILES) | test | system | setting | measurement | value
N=C(N)NCCC[C@@H]1NC(=O)[C@H](Cc2c[nH]c3ccccc23)NC(=O)[C@@H](CC2CCCCC2)NC(=O)[C@@H]2CCCN2C(=O)[C@@H](NC(=O)CCc2ccccc2)CCCNC1=O | – | C57BL/6J mouse, plasma spinal cord | oral, 1 mg/kg single dose | MRT(0-last) | 48 min
NC(=O)N/N=C/c1ccccn1 | cyclic voltammetry | anhydrous DMF | Cu2+ complex, glassy carbon electrode | peak potential separation | 0.135 mV
COC(=O)c1ccc2c(c1)NC(=O)/C2=C(\Nc1ccc2c(c1)CCN2C(=O)CN1CCOCC1)c1ccccc1 | – | cynomolgus monkey, plasma | intravenous, 2 mg/kg | clearance | 0.49 L/h/kg
CN(C)C(CNC(=O)Nc1cc(C(F)(F)F)ccc1N1CCOCC1)c1ccncc1 (stereo not drawn) | – | human, plasma | – | fraction unbound | 0.086
[2H]C([2H])([2H])C(c1cc2nnc(-c3cc(F)ccc3F)n2nc1OCc1ncnn1C)(C([2H])([2H])[2H])C([2H])([2H])[2H] | – | Wistar rat, plasma | oral, 1 mg/kg, 2 h | concentration | 0.191 µg/mL
Cn1c(=O)oc2ccc(-c3ccc(CC(C#N)NC(=O)C4CNCCCO4)c(F)c3)cc21 (stereo not drawn) | – | human | oral, 40 mg once daily, TEAE, multiple ascending dose | AST increased incidence | 11.1%
C=C(C)C(=O)Nc1ccc(-c2c(-c3ccc(Oc4nccc(C)n4)cc3)c3c(N)ncnc3n2C)cc1 | – | cynomolgus monkey, plasma | intravenous | Vd | 0.2 L/kg
CC[C@H](C)[C@H](NC(=O)[C@H](Cc1ccccc1)NC(=O)[C@H](CC(=O)O)NC(=O)[C@H](CCCNC(=N)N)NC(=O)[C@H](Cc1ccccc1)NC(=O)[C@H](Cc1ccccc1)NC(=O)[C@H](CCN)NC(=O)[C@H](CO)NC(=O)[C@H](CC(C)C)NC(=O)[C@H](CCCNC(=N)N)NC(=O)[C@H](CCSC)NC(=O)[C@H](C)N)C(=O)N[C@@H](CCN)C(=O)N[C@@H](CCC(N)=O)C(=O)N[C@@H](CCCNC(=N)N)C(=O)N[C@@H](CCCCN)C(=O)N[C@@H](CCCCN)C(=O)O | circular dichroism | 20% TFE in PBS | 200 µM, pH 7.4, 25 °C | helicity | 18.4%
CC(C)[C@H](NC(=O)CNC(=O)[C@H](CCC(N)=O)NC(=O)[C@H](C)N)C(=O)O | LC-MS/MS | human, plasma | intravenous, 30 mg/kg three times daily, day 2, first dose, 10 min infusion, geometric mean | AUC(0-inf) | 0.56 µg·h/mL

Excerpt of the above:
Structure (SMILES) | test | system | setting | measurement | value
CC[C@H](C)[C@H](NC(=O)[C@H](Cc1ccccc1)NC(=O)[C@H](CC(=O)O)NC(=O)[C@H](CCCNC(=N)N)NC(=O)[C@H](Cc1ccccc1)NC(=O)[C@H](Cc1ccccc1)NC(=O)[C@H](CCN)NC(=O)[C@H](CO)NC(=O)[C@H](CC(C)C)NC(=O)[C@H](CCCNC(=N)N)NC(=O)[C@H](CCSC)NC(=O)[C@H](C)N)C(=O)N[C@@H](CCN)C(=O)N[C@@H](CCC(N)=O)C(=O)N[C@@H](CCCNC(=N)N)C(=O)N[C@@H](CCCCN)C(=O)N[C@@H](CCCCN)C(=O)O | circular dichroism | 20% TFE in PBS | 200 µM, pH 7.4, 25 °C | helicity | 18.4%
